# Measured values from different studies.
# Each numbered part is a random draw from the data of one study; scales do not carry over between parts.

# Set 1 — method: DNA-protein interaction ELISA; molecule type: double-stranded DNA, one strand shown; sample: in vitro, bacterial lysate; concentration: not given; setting: whole dsDNA probe, crude lysate protein; relative to: highest signal in screen; reading: higher = stronger binding
# Target: Probable WRKY transcription factor 11, DNA-binding domain (WRKY11, Arabidopsis thaliana, UniProt Q9SV15, residues 228-325)
# Residues (chain): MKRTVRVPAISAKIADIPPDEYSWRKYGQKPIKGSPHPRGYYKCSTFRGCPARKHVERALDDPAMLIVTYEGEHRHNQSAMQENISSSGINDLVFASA
Strand,relative absorbance
AAAAAAGGTCCAGTCCACGTCATCAGAAAA,44.4 % of maximum
AAAAAACTTCCCTCCTTGTCCTCCCCAAAA,16.7 % of maximum
AAAAAATCGCGAACGTACGTCCGCGGAAAA,12.4 % of maximum
AAAAAATTACTTCTCCCTTCCTTTGCAAAA,14.1 % of maximum

# Set 2 — method: protein binding microarray; molecule type: double-stranded DNA, one strand shown; sample: in vitro; concentration: not given; relative to: not given; reading: higher = stronger binding
# Target: Histone acetyltransferase KAT6A, winged helix 1, GST fusion (KAT6A, Homo sapiens, UniProt Q92794, residues 1-85)
# Setting: 8-mer, flanks averaged, mean of 2 arrays, mostly near background
# Residues (chain): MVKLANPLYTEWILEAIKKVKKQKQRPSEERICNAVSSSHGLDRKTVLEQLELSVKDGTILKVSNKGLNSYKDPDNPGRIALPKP
Strand,E-score
CACGATCG,0.0668
TCCTCCCA,-0.113
CTATTTCC,-0.137
AGCAAGGG,-0.166
AAACTAGC,0.0477
ACATGCGT,0.00391

# Set 3 — method: protein-binding microarray; molecule type: double-stranded DNA, one strand shown; sample: in vitro; concentration: 940 nM top; setting: 60-bp whole probe; added: salmon DNA 0.4 mg/ml; relative to: random background probes; reading: higher = stronger binding; shared flanks, not repeated: GCCTAGCAC … GTCTTGATTCGCTTGACGCTGCTG
# Target: Interferon regulatory factor 5, full length, phosphomimetic (IRF5, Homo sapiens, UniProt Q13568-2, residues 1-514, S451D/S453D/S456D/S462D)
Strand,fitted relative affinity [z-score]
TTAGGTATCAGGTTTCGGTTAGTGCTA,6.98
TGAGGACTGCTTTTCCTTTAGTGCTAG,-0.414
GACGGTCTACTACTGCTGACGTGCTAG,-0.166
GGGCCGAGGCTGTGGCCACCGTGCTAG,-1.05
GCCGGTTCCCTTTTCCTGACGTGCTAG,0.912

# Mixed results
Molecule,target,assay,system,conditions,how to read,quantity,result
"PhoQ, residues 284 288 289 292 302 303 SSTMSV","PhoP, residues 12 14 15 18 19 LYFRQ (Escherichia coli, UniProt P23836)","Sort-seq, measured: YFP reporter",E. coli,"PhoQ-PhoP variant library, added: 10 µM Mg2+","relative to: high Mg2+ state, higher = stronger signaling",fold induction,13.7

# Some of these lines once more (set 3):
Strand,fitted relative affinity [z-score]
TGAGGACTGCTTTTCCTTTAGTGCTAG,-0.414
GACGGTCTACTACTGCTGACGTGCTAG,-0.166
